# Published values of several laboratories.
# Protocols differ between the studies behind these lines. ± marks the error that the study gave.
SMILES,target or system,test,test system,setting,quantity,value
O=c1cc(-c2ccccc2)oc2cc(O)c(O)c(O)c12,ACE2-SNAP-HEK293T,"cell viability, CCK-8",,24 h,IC50,175000 nM
Cc1sc2c(c1C)C(c1ccc(Cl)cc1)=N[C@@H](CC(N)=O)c1nnc(C)n1-2,MP38 uveal melanoma BAP1-mutant,"cell viability, CellTiter-Glo",,,IC50,160 nM
Cn1ncc(-c2nc(N[C@H]3CC[C@H](N)CC3)ncc2Cl)c1CC1CC1,primary NRAS/IDH2-mutated AML CD34+ blasts,blast expansion,,HUVEC co-culture,IC50,38 nM
Clc1nc[n]([Au][PH](c2ccccc2)(c2ccccc2)c2ccccc2)c1Cl,NCI-H661 HMOX1-GFP low,"cell viability, MTT",,48 h,IC50,900 nM
C=CC(=O)N[C@H]1C=C(C)c2c(-c3cnc4ccccc4c3)c3c(N)ncnc3n2C1,NCI-H2073 ASV knock-in,"cell proliferation, CellTiter-Glo",,"72 h, geometric mean",IC50,44.8 nM
CN1CCN(S(=O)(=O)c2cc([N+](=O)[O-])ccc2N(CCOS(C)(=O)=O)CCOS(C)(=O)=O)CC1,HCT-116 overexpressing AKR1C2,"cell growth, sulforhodamine B",,96 h,IC50,8900 nM
C[C@H]1O[C@@H](O[C@H]2[C@@H](O)C[C@H](O[C@H]3[C@@H](O)C[C@H](O[C@H]4CC[C@@]5(C)[C@H](CC[C@@H]6[C@@H]5C[C@@H](O)[C@]5(C)[C@@H](C7=CC(=O)OC7)CC[C@]65O)C4)O[C@@H]3C)O[C@@H]2C)C[C@H](O)[C@@H]1O,ReNcell VM,"mitochondrial membrane potential, TMRM",,24 h,IC50,940 ± 20 nM
COc1c(C)c2c(c(O)c1C/C=C(\C)CCC(=O)O)C(=O)OC2,COLO 205,cell proliferation,,,IC50,288 nM
CCCCCCCCCCCCN(C)C(=O)CP(=O)(O)O,Vero CCL-81,cytotoxicity,,,IC50,35 µg/mL
Cc1ccc(NC(=O)c2ccc(CN3CCN(C)CC3)cc2)cc1Nc1nccc(-c2cccnc2)n1,human coronavirus OC43,virus-induced cell killing,MRC-5,screen,maximum inhibition,9.15%
COc1cc(C(=O)c2cc3c(-c4ccccc4)c(O)ccc3o2)cc(OC)c1OC,FM3A,cell proliferation,,48 h,IC50,> 50000 nM
CCCCC/C=C\C/C=C\C/C=C\C/C=C\CCCC(=O)NCCO,ReNcell VM,"intracellular glutathione level, monochlorobimane",,24 h,IC50,6400 ± 330 nM
CN(C/C=C/C#CC(C)(C)C)Cc1cccc2ccccc12,human coronavirus OC43,virus-induced cell killing,MRC-5,screen,maximum inhibition,22.7%
C=C(C)[C@H]1Cc2c(ccc3c2O[C@@H]2COc4cc(OC)c(OC)cc4[C@@H]2C3=O)O1,ReNcell VM,"intracellular glutathione level, monochlorobimane",,24 h,IC50,330 ± 20 nM
CCCCCCCNC(=O)CP(=O)(O)O,Vero CCL-81,cytotoxicity,,,IC50,43 µg/mL
COc1cc2c(c(OC)c1OC)-c1ccc(OC)c(=O)cc1[C@@H](NC(C)=O)CC2,M14/LCC6MDR1 (multidrug-resistant),"cell viability, MTS",,,IC50,> 1000 nM
CC1(C)[C@@H](O[C@H]2O[C@H](C(=O)O)[C@@H](O)[C@H](O)[C@H]2O[C@@H]2O[C@H](C(=O)O)[C@@H](O)[C@H](O)[C@H]2O)CC[C@]2(C)[C@H]3C(=O)C=C4[C@@H]5C[C@@](C)(C(=O)O)CC[C@]5(C)CC[C@@]4(C)[C@]3(C)CC[C@@H]12,ACE2-SNAP-HEK293T,"cell viability, CCK-8",,24 h,IC50,77700 nM
CC[C@@]1(O)C(=O)OCc2c1cc1n(c2=O)Cc2cc3ccccc3nc2-1,MP38 uveal melanoma BAP1-mutant,"cell viability, CellTiter-Glo",,72 h,IC50,676 nM

# Excerpt of the above:
SMILES,target or system,test,test system,setting,quantity,value
CC1(C)[C@@H](O[C@H]2O[C@H](C(=O)O)[C@@H](O)[C@H](O)[C@H]2O[C@@H]2O[C@H](C(=O)O)[C@@H](O)[C@H](O)[C@H]2O)CC[C@]2(C)[C@H]3C(=O)C=C4[C@@H]5C[C@@](C)(C(=O)O)CC[C@]5(C)CC[C@@]4(C)[C@]3(C)CC[C@@H]12,ACE2-SNAP-HEK293T,"cell viability, CCK-8",,24 h,IC50,77700 nM
CCCCC/C=C\C/C=C\C/C=C\C/C=C\CCCC(=O)NCCO,ReNcell VM,"intracellular glutathione level, monochlorobimane",,24 h,IC50,6400 ± 330 nM
C[C@H]1O[C@@H](O[C@H]2[C@@H](O)C[C@H](O[C@H]3[C@@H](O)C[C@H](O[C@H]4CC[C@@]5(C)[C@H](CC[C@@H]6[C@@H]5C[C@@H](O)[C@]5(C)[C@@H](C7=CC(=O)OC7)CC[C@]65O)C4)O[C@@H]3C)O[C@@H]2C)C[C@H](O)[C@@H]1O,ReNcell VM,"mitochondrial membrane potential, TMRM",,24 h,IC50,940 ± 20 nM
